Assay results of several laboratories.
Lines come from different studies, so protocols differ. Numbers after ± are the reported error.

SMILES	test	system	setting	how to read	quantity	value
N[C@@H]1c2ccccc2OC12CCN(c1cnc3c(N4CCCc5ncccc54)n[nH]c3n1)CC2	–	advanced metastatic solid tumour patients	oral, 100 mg once daily	–	TEAE leading to withdrawal	14.3%
Clc1ccc(-c2ccccc2)cc1	–	Sprague-Dawley rats, female, serum	inhalation, 23 µg/rat, 2 h after exposure	–	albumin	3 ± 0.7 g/dL
COc1ccc(-c2c(-c3ccc(C#N)c(F)c3)nc(N3CCC(N)CC3)n(C)c2=O)cc1F	refers to: Abdominal pain	human patients	oral, dose not given, dose escalation, NG	–	serious adverse event incidence	2%
O=C1Nc2cc3[nH]nc(-c4ccncc4)c3cc2CN1Cc1ccccc1	CTCAE v4.03	advanced solid tumour patients	intravenous, 6.4 mg/kg	–	patients with diarrhoea	11%
Oc1ccc(Cl)c(-c2cc(Cl)c(Cl)cc2Cl)c1Cl	enantioselective gas chromatography	racemized sample	column temperature 140 °C	–	enantiomeric fraction	0.5
CCCCCOc1ccc(-c2ccc(-c3ccc(C(=O)N[C@H]4C[C@@H](O)[C@@H](OCC[N+](C)(C)C)NC(=O)[C@@H]5[C@@H](O)[C@@H](C)CN5C(=O)[C@H]([C@@H](C)O)NC(=O)[C@H]([C@H](O)[C@@H](O)c5ccc(O)cc5)NC(=O)[C@@H]5C[C@@H](O)CN5C(=O)[C@H]([C@@H](C)O)NC4=O)cc3)cc2)cc1	–	adult ICU patients, mITT, serum	dose not given, day 30	–	alanine aminotransferase	15.1 U/L
CC(C)C[C@H](NC(=O)[C@H](CCCCN)NC(=O)OCC1c2ccccc2-c2ccccc21)C(=O)N[C@H](C(=O)N[C@@H](Cc1ccccc1)C(=O)N[C@@H](Cc1ccccc1)C(=O)N[C@@H](CCCCN)C(=O)NCC(=O)N[C@@H](Cc1ccccc1)C(=O)N[C@@H](C)C(=O)N[C@@H](Cc1c[nH]c2ccccc12)C(=O)N[C@@H](CC(N)=O)C(=O)N[C@H](C(=O)N[C@H]1CSSC[C@@H](C(=O)N[C@@H](Cc2c[nH]cn2)C(=O)N[C@@H](CCCNC(=N)N)C(=O)N[C@@H](CCCNC(=N)N)C(=O)N[C@@H](C)C(=O)N[C@@H](CC(N)=O)C(N)=O)NC(=O)[C@H](C(C)C)NC(=O)[C@H](CCCNC(=N)N)NC(=O)[C@H](C(C)C)NC(=O)CNC(=O)[C@H](CC(N)=O)NC(=O)[C@H](CCCNC(=N)N)NC(=O)[C@H](Cc2ccc(O)cc2)NC(=O)[C@H](C(C)C)NC1=O)C(C)C)C(C)C	–	ICR mice, blood	intraductal mammary, 10 mg/kg, day 5	–	neutrophils	20.1 ± 0.99%
Cn1cncc1-c1c(F)cncc1NC(=O)c1c(N)nn2cc(F)cnc12	–	human patients	oral, 80 mg once daily	–	grade ≥3 platelet decrease incidence	0%
C1=Cc2nc1cc1ccc([n-]1)c(-c1ccccc1)c1nc(cc3ccc([n-]3)c2-c2ccccc2)C=C1.CC(=O)[O-].[Mn+3]	LC-MS/MS	Sprague-Dawley rat, plasma	oral gavage, dose not given, 360 min, individual rat Rat1	–	plasma concentration	121 ng/mL
CC(=O)c1c(C)c2cnc(Nc3ccc(C4CCN(CCS(C)(=O)=O)CC4)cn3)nc2n(C2CCCC2)c1=O	–	Sprague-Dawley rat, both sexes	oral, 4 weeks, repeated dosing	–	maximum tolerated dose	60 mg/kg
CC(C)[C@H](O)C(=O)N[C@H]1Cc2ccc3c(c2)[C@]2(C4=C(c5nc(CO)co5)N=C(O4)[C@H](C(C)(C)C)NC1=O)c1cc(F)ccc1N[C@@H]2O3	–	NSG mice, lung	intravenous, 10 mg/kg, single dose at MTD, added: paclitaxel 40 mg/kg	–	AUC(0-t)	2890 ng·h/mL
C[C@H]1CN(C(=O)CC#N)[C@]12CCN(c1ncnc3[nH]ccc13)C2	–	rat female	oral, 10 mg/kg repeated daily, 6 months, repeated-dose toxicity study	–	AUC at NOAEL	4290 ng·h/mL
O=S(=O)([O-])C(F)(F)C(F)(F)C(F)(F)C(F)(F)C(F)(F)C(F)(F)C(F)(F)C(F)(F)F.[K+]	–	male C57BL/6J mice, EtOH-fed, liver	dose not given	reference: efavirenz	NEFA level	no effect
COc1ncccc1-c1cnn2ccc(N3CCN(C(=O)OC(C)C)CC3)nc12	–	rat, brain	oral, 30 mg/kg, 1.5 h, added: saline	–	concentration	5.3 µM
CC(C)Nc1ccnc(Nc2cccc(-c3cccnc3)c2)n1	refers to: total protein	mouse, blood	intraperitoneal, 5 mg/kg	–	blood chemistry	5.7 g/dL
CC(=O)N[C@H]1CC[C@H](NC(=O)CN2CCN(c3nncc(-c4ccc(C)cc4)n3)CC2)CC1	–	female monkeys	–	–	NOAEL	100 mg/kg/day
Cc1ccc(F)c2cc(C(=O)N[C@@H]3CCC[C@H](N4CC[C@H](N(C)S(C)(=O)=O)C4)C3)[nH]c12	–	CD1 mouse, plasma	intravenous, 1 mg/kg, 0.167 h	–	plasma concentration	220 ng/mL
O=S(=O)(Nc1ccccc1)c1ccc(NC(=S)Nc2ccccc2)cc1	–	mouse, male, small intestine	oral, 5 mg/kg daily, 14 days	reference: body weight	relative organ weight	2.6%

SMILES	test	system	setting	how to read	quantity	value
COc1cc2c(Oc3ccc4[nH]c(C)cc4c3F)ccnc2cc1OCC1(N)CC1	–	paediatric recurrent refractory sarcoma	10 mg	–	grade 1 or 2 ALP elevation	25%
[2H]C([2H])([18F])[C@]([2H])(N)C(=O)O	PET	athymic nude mice, U-87 MG, muscle	dose not given, 30 min post-injection	–	tissue uptake	1.47 ± 0.25 %ID/cc
NC(=O)[C@H]1CCN(c2ncnc(N)c2F)C[C@@H]1N1CCC[C@@H](Nc2cc(Cl)cc(C(F)(F)F)c2)C1=O	–	B-cell malignancy patients	oral, 41 mg twice daily, dose	–	grade ≥3 bilirubin increase	10%
C=CCn1c(=O)c2cnc(Nc3ccc(N4CCN(C)CC4)cc3)nc2n1-c1ccc2c(n1)[C@@](O)(CC)CC2	–	mouse, CDX tumour models, body weight	80 mg/kg once daily	–	tolerability	not toxic
O=C(Nc1ccccc1)C1CCN(C(=O)Oc2cccnc2)CC1	adverse event reporting	healthy women	oral, 20 mg, 7 days	–	subjects with sleep disorder	7.1%
CO[C@H]1C[C@@H]2CC[C@@H](C)[C@@](O)(O2)C(=O)C(=O)N2CCCC[C@H]2C(=O)O[C@H]([C@H](C)C[C@@H]2CC[C@@H](OC(=O)NCCOCCOCCOCCOCCOCCOCCOCCOCCC(=O)N3CCc4cc(Cn5nc(-c6ccc7oc(N)nc7c6)c6c(N)ncnc65)ccc4C3)[C@H](OC)C2)C[C@@H](O)[C@H](C)/C=C(\C)[C@@H](O)[C@@H](OC)C(=O)[C@H](C)C[C@H](C)/C=C/C=C/C=C/1C	–	patients with advanced solid tumours	intravenous, dose not given, grade ≥3	–	incidence of Dysgeusia TEAE	0%
Cn1cc(-c2nc(N[C@@H]3CCCC[C@@H]3N)c(F)c3c2C(=O)NC3)cn1	epistaxis	patients with relapsed or refractory AML	oral, 100 mg once daily	–	adverse events	43%
C[C@]1(CO)Cc2ncn(-c3ccc(C#N)c(Cl)c3)c2C(=O)O1	–	human	5 mg single dose	–	subjects with drug-related orthostatic hypotension	0%
O=C(O)CCCOc1ccc(F)cc1-c1cc(-c2ccccc2C(F)(F)F)n(-c2ccccc2)n1	refers to: thyroid	Crl:CD(SD) rats, female	iv, 25 µg/kg, 1 day	–	relative organ weight	8 ± 0.9 mg%
Cc1ccc2c(c1)C(=O)C1(O)CCN(c3ccccc3)C1=N2 (centres unmarked)	cardiac output, echocardiography	rat	IV infusion, 0.5 mg/kg	–	reduction from baseline	~80%
NCCCC[C@@H]1NC(=O)[C@@H](Cc2c[nH]c3ccccc23)NC(=O)[C@H](c2ccccc2)NC(=O)[C@@H]2C[C@@H](OC(=O)NCCN)CN2C(=O)[C@H](Cc2ccccc2)NC(=O)[C@H](Cc2ccc(OCc3ccccc3)cc2)NC1=O	–	healthy volunteers	subcutaneous, 600 µg twice daily, day 5, 3.00 h	–	QTcI change from baseline	6.3 ms
COc1ccnc(C(=O)N[C@H]2COC(=O)[C@H](Cc3ccccc3)[C@@H](OC(=O)C(C)C)[C@H](C)OC2=O)c1OCOC(=O)C(C)C	–	laying hens, female, fat	oral, 10.7 mg/kg dry feed, 7 days	–	share of total radioactive residue	5 % TRR
C[C@@H](NC(=O)N1C(=O)[C@H](Cc2ccnc(N)c2)[C@H]1C(=O)O)C1CCCCC1	–	healthy adult Chinese volunteers	continuous intravenous infusion, 2.25 mg/kg/h, 5-day infusion, CTCAE 5.0 grading	–	incidence of diarrhea	0%
CN[C@H]1CC[C@@H](c2ccc(Cl)c(Cl)c2)c2ccccc21	–	CD-1 mouse, male, plasma	intraperitoneal, 30 mg/kg	–	AUC(0-inf)	3300 ng·h/mL
C=CCNc1c(O)cc2c(O)c1C[C@@H](C)C[C@H](OC)[C@H](O)[C@@H](C)/C=C(\C)[C@H](OC(N)=O)[C@@H](OC)/C=C\C=C(/C)C(=O)N2	–	unresectable or metastatic STS, GIST, other	intravenous, 300 mg/m^2	–	patients with headache TEAE	33%
C=CC(=O)N1CC[C@H](n2nc(C#Cc3cc(OC)cc(OC)c3)c3c(N)ncnc32)C1	–	patients with advanced solid tumours	oral, dose not given, Vomiting, any grade, QD, added: phosphate-binding therapy	–	adverse drug reaction incidence	20%
N=c1c2c(-c3ccccc3)c(-c3ccccc3)n(Cc3ccccc3)c2ncn1[C@H]1CC[C@H](O)CC1	equilibrium dialysis	pooled human plasma	–	–	fu	0.0059
